{"data": "Assay results collected from several papers", "KIT D816V": "Mast/stem cell growth factor receptor Kit (KIT, Homo sapiens, UniProt P10721, D816V)", "KIT": "Mast/stem cell growth factor receptor Kit (KIT, Homo sapiens, UniProt P10721)", "KIT V559D/V654A": "Mast/stem cell growth factor receptor Kit (KIT, Homo sapiens, UniProt P10721, V559D/V654A)", "KIT D816H": "Mast/stem cell growth factor receptor Kit (KIT, Homo sapiens, UniProt P10721, D816H)", "KIT L576P": "Mast/stem cell growth factor receptor Kit (KIT, Homo sapiens, UniProt P10721, L576P)", "note": "Protocols differ between the studies behind these lines."}
{"Structure (SMILES)": "CCN1CCN(Cc2ccc(NC(=O)c3ccc(C)c(NC(=O)c4cncc(-c5cccs5)c4)c3)cc2C(F)(F)F)CC1", "target": "KIT D816V", "read-out": "binding", "technique": "competition with immobilised ligand", "concentration": "1 µM", "remaining binding": "11%"}
{"Structure (SMILES)": "C=C1C[C@]2(C(=O)OC)C=C(C(=O)Nc3cccc(C(=O)Nc4ccc(Nc5nccc(-c6cccnc6)n5)c(C)c4)c3)C(=O)[C@H]1C2", "target": "KIT", "read-out": "binding", "technique": "competition with immobilised ligand", "concentration": "1 µM", "remaining binding": "49%"}
{"Structure (SMILES)": "Nc1ncc2c(n1)-c1c([nH]c3ccc(C4=CCOCC4)cc13)CCC2", "target": "KIT D816V", "read-out": "binding", "technique": "competition with immobilised ligand", "concentration": "1 µM", "remaining binding": "100%"}
{"Structure (SMILES)": "Cc1ccc(C(=O)Nc2cccc(C(F)(F)F)c2)cc1Nc1cncc(C(N)=O)c1", "target": "KIT V559D/V654A", "read-out": "binding", "technique": "competition with immobilised ligand", "concentration": "1 µM", "remaining binding": "18%"}
{"Structure (SMILES)": "CCN1CCN(Cc2ccc(C(=O)Nc3ccc(C)c(NCc4cnc5[nH]ccc5c4OC)c3)cc2C(F)(F)F)CC1", "target": "KIT", "read-out": "binding", "technique": "competition with immobilised ligand", "concentration": "1 µM", "remaining binding": "0.15%"}
{"Structure (SMILES)": "Cc1cnc2nc1Nc1cccc(c1)COC/C=C/COCc1cc(ccc1OCCN1CCOCC1)N2", "target": "KIT D816H", "read-out": "binding", "concentration": "0.1 µM", "remaining binding": "69%"}
{"Structure (SMILES)": "Cc1ccc(-c2c(/C=C(\\C#N)C(=O)NC(C)C)n(CCCO)c3ncnc(N)c23)cc1", "target": "KIT L576P", "read-out": "cell-free assay", "technique": "competition with immobilised ligand", "concentration": "1 µM", "remaining binding": "45%"}
{"Structure (SMILES)": "CNS(=O)(=O)Nc1nccc(Cc2c(C)c3ccc(Oc4ncccc4F)cc3oc2=O)c1F", "target": "KIT D816V", "read-out": "binding", "technique": "competition with immobilised ligand", "concentration": "10 µM", "remaining binding": "98%"}
{"Structure (SMILES)": "CNC(=O)C1CCN(c2cc(C)c(F)cc2NC(=O)c2ccc(-c3cc(O)ccc3C)c(C)c2)CC1", "target": "KIT L576P", "read-out": "binding", "technique": "competition with immobilised ligand", "concentration": "1 µM", "remaining binding": "69%"}
{"Structure (SMILES)": "COc1c(Cl)cccc1Nc1c(-c2ccncc2C#C[C@@]2(C)CCCN2C(=O)/C=C/CN(C)C)[nH]c2c1C(=O)NCC2", "target": "KIT D816H", "read-out": "binding", "technique": "competition with immobilised ligand", "concentration": "3 µM", "remaining binding": "83%"}
{"Structure (SMILES)": "Cc1cc(-c2n[nH]cc2C(=O)Nc2ccc(C)c(F)c2)ccn1", "target": "KIT", "read-out": "cell-free assay", "technique": "competition with immobilised ligand", "concentration": "10 µM", "remaining binding": "20%"}
{"Structure (SMILES)": "CC(C)=CC1OC(C)(C)C2C=C3C(=O)C(Cl)=CC(O)C3C3C(O)C4OC4C(=O)C132 (centres unmarked)", "target": "KIT L576P", "read-out": "cell-free assay", "technique": "competition with immobilised ligand", "concentration": "10 µM", "remaining binding": "99%"}
{"Structure (SMILES)": "CN1CCN(Cc2ccc(NC(=O)c3cccc(C#Cc4cnc(N)c5ncccc45)c3)cc2C(F)(F)F)CC1", "target": "Mast/stem cell growth factor receptor Kit (KIT, Homo sapiens, UniProt P10721, T670I/V559D)", "read-out": "cell-free assay", "technique": "competition with immobilised ligand", "concentration": "0.5 µM", "remaining binding": "0.1%"}
{"Structure (SMILES)": "C=CC(=O)N1CCCC(n2c(=O)c3ncccc3n(Cc3ccc(Oc4ccccc4)cc3)c2=O)C1 (centres unmarked)", "target": "Mast/stem cell growth factor receptor Kit, autoinhibited (KIT, Homo sapiens, UniProt P10721)", "read-out": "cell-free assay", "technique": "competition with immobilised ligand", "concentration": "1 µM", "remaining binding": "64%"}
{"Structure (SMILES)": "CC(=O)N1c2ccc(-c3ccc(CNC(=O)c4cn5cc(-c6cnc(N)nc6)nc(N6CCOCC6)c5n4)cc3)cc2CC[C@@H]1C", "target": "KIT", "technique": "KINOMEscan", "concentration": "10 µM", "remaining binding": "82%"}
{"Structure (SMILES)": "CNC1C[S+]2CC[S+]3CC[S+](C1)[Ru-4]321([N]=C=S)[n]2c3ccc(OC)cc3c3c4c(c5cc(F)c[n+]1c5c32)C(=O)NC4=O (centres unmarked)", "target": "KIT V559D/V654A", "technique": "KinomeScan", "concentration": "0.1 µM", "reference": "untreated", "remaining binding": "75%"}
{"Structure (SMILES)": "C=CC(=O)N1CCc2ccc(-n3c(=O)ccc4cnc5ccc(-c6cnn(C)c6)cc5c43)cc21", "target": "KIT D816V", "technique": "KINOMEscan", "concentration": "1 µM", "reference": "DMSO control", "remaining binding": "92%"}
